{"data": "Experimental data gathered from unrelated publications", "note": "Compare with care: the assays were run in different laboratories. ± gives the spread as reported."}
{"Compound": "COC[C@@H](NC(C)=O)C(=O)NCc1ccc(N=[N+]=[N-])cc1", "tested on": "CAD", "assay": "whole-cell patch clamp", "setting": "100 µM", "measurement": "slow inactivation onset potential", "value": "> -80 mV"}
{"Compound": "C=CCc1cc2c(c(OC)c1OC)OCO2", "tested on": "T47D", "assay": "cell growth or viability, MTT", "setting": "72 h", "measurement": "GI50", "value": "80.5 µM"}
{"Compound": "CCCC[C@H](NC(=O)CNC(=O)CNC(=O)c1ccc(NN)nc1)C(=O)N[C@H]1CC(=O)NCCCC[C@@H](C(N)=O)NC(=O)[C@H](Cc2c[nH]c3ccccc23)NC(=O)[C@H](CCCNC(=N)N)NC(=O)[C@@H](Cc2ccccc2)NC(=O)[C@H](Cc2c[nH]cn2)NC1=O [technetium-99m labelled]", "system": "C57 mouse, B16/F1 melanoma-bearing, spleen", "setting": "intravenous, 4 h", "measurement": "tissue uptake", "value": "0.2 ± 0.18 %ID/g"}
{"Compound": "CC(=O)OC[C@H]1O[C@@H](Sc2sc(C(=O)c3ccc(Br)cc3)c(N)c2-c2nc3ccccc3s2)[C@H](OC(C)=O)[C@@H](OC(C)=O)[C@@H]1OC(C)=O", "tested on": "HL-60(TB)", "setting": "10 µM, 48 h", "measurement": "growth", "value": "113%"}
{"Compound": "COc1cc(CNC(=O)C[C@H](C)CCC=C(C)C)ccc1OCc1cn(-c2cccc(Cl)c2)nn1", "tested on": "HL-60(TB)", "assay": "SRB", "setting": "10 µM, 48 h", "measurement": "growth", "value": "83.9%"}
{"Compound": "CC[C@H](C)[C@H](NC(=O)[C@H](C)NC(=O)CNC(=O)[C@H](CCCCN)NC(=O)[C@H](CC(N)=O)NC(=O)[C@H](CO)NC(=O)CN)C(=O)N[C@H](C(=O)NCC(=O)N[C@@H](CC(C)C)C(=O)N[C@@H](CCSC)C(=O)O)[C@@H](C)CC", "tested on": "rat primary cortical neurons", "setting": "10 µM", "scale": "reference: control", "measurement": "cell survival", "value": "54.6%"}
{"Compound": "CC[C@H](C)[C@@H]1NC(=O)[C@H](CCCCN)NC(=O)[C@H](CCCCN)NC(=O)[C@H](C)NC(=O)[C@H](C(C)C)NC(=O)[C@H](C)NC(=O)[C@H](CC(C)C)NC(=O)[C@H](CC(C)C)NC(=O)[C@H](C)NC(=O)[C@H](CCCCN)NC(=O)[C@H](CC(C)C)NC(=O)[C@H](CC(N)=O)NC(=O)[C@H](CC(C)C)NC(=O)[C@@H](N)CSSC[C@@H](C(N)=O)NC(=O)[C@H](CC(C)C)NC1=O", "tested on": "HMEC-1", "assay": "cell growth or viability, MTT", "setting": "24 h", "measurement": "IC50", "value": "39.5 µM"}
{"Compound": "CC(=O)OC[C@H]1O[C@@H](Sc2sc(C(=O)c3ccc(C)cc3)c(N)c2-c2nc3ccccc3s2)[C@H](OC(C)=O)[C@@H](OC(C)=O)[C@H]1OC(C)=O", "tested on": "HL-60(TB)", "setting": "10 µM, 48 h", "measurement": "growth", "value": "82.7%"}
{"Compound": "N=C(N)NCCC[C@@H]1NC(=O)[C@H](CCCCNC(=O)CCOCCOCCOCCOCCNC(=O)CN2CCN(CC(=O)O)CCN(CC(=O)O)CCN(CC(=O)O)CC2)NC(=O)[C@@H](Cc2ccccc2)NC(=O)[C@H](CC(=O)O)NC(=O)CNC1=O [indium-111 labelled]", "system": "female athymic nude mice, muscle", "setting": "intravenous, 3 µCi, 72 h, U-87 MG glioma xenograft", "measurement": "tissue uptake", "value": "0.13 ± 0.05 %ID/g"}
{"Compound": "CN[C@](C)(C[18F])C(=O)O", "tested on": "A549 tumour model", "system": "host not given, tumour", "setting": "2 h, tumour-bearing", "measurement": "tracer uptake", "value": "3.6 %ID/g"}
{"Compound": "COc1cc(CNC(=O)C[C@H](C)CCC=C(C)C)ccc1OCc1cn(-c2ccccc2F)nn1", "tested on": "HL-60(TB)", "assay": "SRB", "setting": "10 µM, 48 h", "measurement": "growth", "value": "91.5%"}
{"Compound": "N=C(N)NCCC[C@@H]1NC(=O)[C@H](CCCCNC(=O)CC[C@H](NC(=O)CCOCCOCCOCCOCCNC(=O)CC[C@H](NC(=O)CN2CCN(CC(=O)O)CCN(CC(=O)O)CCN(CC(=O)O)CC2)C(=O)NCCOCCOCCOCCOCCC(=O)N[C@@H](CCC(=O)NCCCC[C@@H]2NC(=O)[C@@H](Cc3ccccc3)NC(=O)[C@H](CC(=O)O)NC(=O)CNC(=O)[C@H](CCCNC(=N)N)NC2=O)C(=O)NCCCC[C@@H]2NC(=O)[C@@H](Cc3ccccc3)NC(=O)[C@H](CC(=O)O)NC(=O)CNC(=O)[C@H](CCCNC(=N)N)NC2=O)C(=O)NCCCC[C@@H]2NC(=O)[C@@H](Cc3ccccc3)NC(=O)[C@H](CC(=O)O)NC(=O)CNC(=O)[C@H](CCCNC(=N)N)NC2=O)NC(=O)[C@@H](Cc2ccccc2)NC(=O)[C@H](CC(=O)O)NC(=O)CNC1=O [indium-111 labelled]", "system": "female athymic nude mice, bone", "setting": "intravenous, 3 µCi, 0.5 h, U-87 MG glioma xenograft", "measurement": "tissue uptake", "value": "1.89 ± 0.37 %ID/g"}
{"Compound": "COc1cc(CNC(=O)C[C@H](C)CCC=C(C)C)ccc1OCc1cn(-c2ccc(C#N)cc2)nn1", "tested on": "HL-60(TB)", "assay": "SRB", "setting": "10 µM, 48 h", "measurement": "growth", "value": "70.8%"}
{"Compound": "COc1ccc(-n2cc(C(=O)N3C[C@]4(OC(=O)c5ccccc5NC(C)=O)CC[C@H](OC)[C@@]56[C@@H]4C[C@@H]([C@@H]35)[C@@]3(O)C[C@H](OC)[C@H]4C[C@@H]6[C@]3(O)[C@H]4OC)nn2)cc1", "tested on": "RAW264.7", "assay": "western blot", "setting": "30, 60 or 120 µM, 24 h, with: LPS 1 µg/mL", "measurement": "p-p65/p65 ratio", "value": "decreased"}
{"Compound": "COc1cc(CNC(=O)C[C@H](C)CCC=C(C)C)ccc1OCc1cn(-c2ccc(Cl)c(Cl)c2)nn1", "tested on": "HL-60(TB)", "assay": "SRB", "setting": "10 µM, 48 h", "measurement": "growth", "value": "84%"}
{"Compound": "CC/C=C\\C/C=C\\C/C=C\\C/C=C\\C/C=C\\C/C=C\\CCC(=O)Nc1ccn(C2OC(CO)C(O)C2(F)F)c(=O)n1 (stereo not shown)", "tested on": "HL-60(TB)", "measurement": "CC50", "value": "> 100 µM"}
{"note": "A few entries again:"}
{"Compound": "COc1cc(CNC(=O)C[C@H](C)CCC=C(C)C)ccc1OCc1cn(-c2ccccc2F)nn1", "tested on": "HL-60(TB)", "assay": "SRB", "setting": "10 µM, 48 h", "measurement": "growth", "value": "91.5%"}
{"Compound": "N=C(N)NCCC[C@@H]1NC(=O)[C@H](CCCCNC(=O)CC[C@H](NC(=O)CCOCCOCCOCCOCCNC(=O)CC[C@H](NC(=O)CN2CCN(CC(=O)O)CCN(CC(=O)O)CCN(CC(=O)O)CC2)C(=O)NCCOCCOCCOCCOCCC(=O)N[C@@H](CCC(=O)NCCCC[C@@H]2NC(=O)[C@@H](Cc3ccccc3)NC(=O)[C@H](CC(=O)O)NC(=O)CNC(=O)[C@H](CCCNC(=N)N)NC2=O)C(=O)NCCCC[C@@H]2NC(=O)[C@@H](Cc3ccccc3)NC(=O)[C@H](CC(=O)O)NC(=O)CNC(=O)[C@H](CCCNC(=N)N)NC2=O)C(=O)NCCCC[C@@H]2NC(=O)[C@@H](Cc3ccccc3)NC(=O)[C@H](CC(=O)O)NC(=O)CNC(=O)[C@H](CCCNC(=N)N)NC2=O)NC(=O)[C@@H](Cc2ccccc2)NC(=O)[C@H](CC(=O)O)NC(=O)CNC1=O [indium-111 labelled]", "system": "female athymic nude mice, bone", "setting": "intravenous, 3 µCi, 0.5 h, U-87 MG glioma xenograft", "measurement": "tissue uptake", "value": "1.89 ± 0.37 %ID/g"}
